Published values pooled from the literature.
Protocols differ between the studies behind these lines. Several values in a cell are separate wells, animals, samples, runs or records. ± gives the spread as reported.
UniProt P04062, sequence (whole entry, unmodified, looked up): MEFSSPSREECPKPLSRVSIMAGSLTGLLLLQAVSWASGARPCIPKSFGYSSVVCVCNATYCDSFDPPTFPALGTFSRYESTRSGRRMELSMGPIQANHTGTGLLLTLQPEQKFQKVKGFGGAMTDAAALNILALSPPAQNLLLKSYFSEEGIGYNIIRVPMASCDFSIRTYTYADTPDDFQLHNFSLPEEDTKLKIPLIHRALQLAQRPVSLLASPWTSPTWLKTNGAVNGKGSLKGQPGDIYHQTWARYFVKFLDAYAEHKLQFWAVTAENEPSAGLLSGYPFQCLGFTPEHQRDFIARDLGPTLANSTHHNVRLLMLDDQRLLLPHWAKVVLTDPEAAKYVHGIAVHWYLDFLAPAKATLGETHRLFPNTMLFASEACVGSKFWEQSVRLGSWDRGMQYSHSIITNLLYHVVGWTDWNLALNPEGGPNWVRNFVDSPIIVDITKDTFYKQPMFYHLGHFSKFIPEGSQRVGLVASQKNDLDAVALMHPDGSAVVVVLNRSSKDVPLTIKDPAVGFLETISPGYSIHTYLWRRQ

NC(=O)c1cccc(NC(=O)c2cc(-c3ccc(Br)cc3)n(-c3ccccc3)n2)c1 — depletion (human liver microsomes; 4 h): < 15%
C#CCOCCOCCOCCOCCn1cc(C(ONC(=O)/C=C/C(C)=C/C2(C)Oc3cc(N(C)C)ccc3C2=O)(c2ccc(C)cc2)c2ccc(C)cc2)nn1 (stereo not drawn) — release from prodrug hydrolysis (HPLC; aqueous buffer, 20% acetonitrile; concentration not given, 376 min, pH 3; baseline: initial prodrug amount): 25.2%
COc1ccc(C(N)=O)cn1 — concentration at time (Han Wistar rats, male, plasma; oral, 30 mg/kg, 4.00 h): 3.81 µM
CN1CCC[C@@H]1C(=O)N[C@@H](Cc1ccc(-c2ccccc2)cc1)B(O)O — blood concentration (NODscidIL2Rγnull mice, whole blood; oral, 50 mg/kg, 6 h, mean): 240 ng/mL
CN1CCCNC(=O)c2cccc(c2)C(=O)NCCCN(C)CCCNc2cccc3c2C(=O)c2cccc(c2C3=O)NCCC1 — body weight (mouse xenograft model; dose not given, day 10): 24 g and 26 g and 27 g
CC(C)N=c1cc2n(-c3ccc(Cl)cc3)c3ccccc3nc-2cc1Nc1ccc(Cl)cc1 — relative translation (Trypanosoma cruzi; reporter mRNA translation, inhibitor, item: capped polyadenylated Renilla luciferase mRNA; cell-free extract; concentration not given; baseline: control RNA): 122%
N=C(N)NCCC[C@@H]1NC(=O)[C@H](CO)NC(=O)[C@@H](NC(=O)[C@H](CO)NC(=O)[C@H](CO)NC(=O)[C@H](Cc2c[nH]c3ccccc23)NC(=O)CNC(=O)[C@H](CO)NC(=O)[C@@H](N)Cc2c[nH]c3ccccc23)CSSC[C@@H](C(=O)NCC(=O)O)NC(=O)[C@H](CO)NC1=O — AUC(0-inf) (patients, plasma; intravenous, 10 mg/kg, thrice weekly, mean): 908 ng·h/mL
CN([O-])C(=O)CN1CCNCCN(CC(=O)N(C)[O-])CC1.[89Zr+4] — tracer uptake (mouse, spleen; intravenous, 24 h): 0.06 %ID/g
O=C(CCc1ccc(CNC(C(=O)OC2CCCC2)C2CCCCC2)cn1)NO (stereo not drawn) — Cmax ratio (healthy male humans, plasma; oral, 40 mg, single dose; baseline: fed over fasted): 0.33
C=CC(=O)Nc1cccc(Cn2ncc3cnc(Nc4cnn(CCOC)c4)nc32)c1 — scaled intrinsic clearance (dog hepatocytes): 614 mL/min/kg
O=C(O)CN1CCN(CC(=O)O)CCN(CC(O)CN(CC(O)CN2CCN(CC(=O)O)CCN(CC(=O)O)CCN(CC(=O)O)CC2)C[C@H](O)[C@@H](O)[C@H](O)[C@H](O)CO)CCN(CC(=O)O)CC1 (stereo partly drawn) — log K CaL (pH-potentiometry; 0.15 M NaCl; 25 °C): 12.9
CCCC[C@H](OC(C)=O)c1ccccc1C(=O)O — Tmax (Sprague-Dawley rats, both sexes, whole blood; intravenous, 1.25 mg/kg single dose): 1.02 min
CN(O)C(=O)CCC(=O)NCCCN(CCCCN(CCCNC(=O)CCC(=O)N(C)O)C(=O)CCC(=O)N(C)O)C(=O)CCC(=O)N(C)O.[89Zr] — intact complex (radio-TLC; aqueous buffer; 7 d, pH 5, 37 °C, 89Zr-labelled complex, together with: DTPA 100-fold excess): 98.2 ± 1%
O=C1CCC(N2Cc3cc(N4CCN(CC5CCN(c6ccc(C7c8ccc(OC9OC(C(=O)O)C(O)C(O)C9O)cc8CCC7c7ccccc7)cc6)CC5)CC4)ccc3C2=O)C(=O)N1 (stereo not drawn) — biliary excretion (Sprague-Dawley rat, male, bile duct-cannulated, bile; 0 to 72 h; baseline: dose): 0.62%
Cc1ncsc1-c1ccc(CNC(=O)[C@@H]2C[C@@H](O)CN2C(=O)[C@@H](NC(=O)COCC(C)(COCCOCCOCCNC(=O)C[C@@H]2N=C(c3ccc(Cl)cc3)c3c(sc(C)c3C)-n3c(C)nnc32)COCCOCCOCCNC(=O)C[C@@H]2N=C(c3ccc(Cl)cc3)c3c(sc(C)c3C)-n3c(C)nnc32)C(C)(C)C)cc1 — plasma concentration (male C57BL/6 mice, plasma; intravenous, 5 mg/kg, 1 h, sample diluted 20-fold): 5410 ng/mL
C=CC(=O)Nc1cc(Nc2nccc(-c3c[nH]c4ccccc34)n2)c(OC)cc1N(C)CCN(C)C — recovery (storage stability; human dried blood spot; 30 d, -80 °C, LQC level): 101%
CC[C@H](C)[C@H](NC(=O)[C@H](CCCCN)NC(C)=O)C(=O)N[C@@H](C)C(=O)N[C@@H](C)C(=O)N[C@@H](CC(C)C)C(=O)N[C@@H](CCCCN)C(=O)N[C@@H](CCC(=O)O)C(=O)N[C@@H](CCCCN)C(=O)N[C@H](C(=O)N[C@H]1CSCc2cccc(c2)CSC[C@@H](C(=O)N[C@@H](CCCCN)C(=O)N[C@H](C(=O)N[C@@H](C)C(=O)N[C@@H](C)C(=O)N[C@@H](CC(C)C)C(=O)N[C@@H](CCCCN)C(=O)N[C@@H](CCC(=O)O)C(=O)NCC(=O)N[C@@H](Cc2c[nH]c3ccccc23)C(N)=O)[C@@H](C)CC)NC(=O)[C@H](CCCCN)NC(=O)[C@H](CC(C)C)NC(=O)[C@H](C)NC1=O)[C@@H](C)CC — ΔG of membrane partitioning (tryptophan fluorescence titration; DOPC/DOPE/cholesterol 2:1:1 liposomes in PBS): -6.68 kcal/mol
Cc1nn(-c2nc3c(F)cc(F)cc3s2)c(O)c1C(c1ccc(C(F)(F)F)cc1)c1c(C)nn(-c2nc3c(F)cc(F)cc3s2)c1O — plasma concentration (ICR mouse; intravenous, 5 mg/kg, 3 min): 8540 ng/mL and 21600 ng/mL and 11700 ng/mL
CN1CCC[C@]1(C)/C=C/S(=O)(=O)NC(=O)Nc1c2c(cc3c1C(O)CC3)CCC2 (stereo partly drawn) — Cmax at first steady-state dose (human, plasma; oral, 50 mg twice daily of parent drug, day 14, metabolite of dosed drug): 11300 ng/mL
O=C1c2ccc3c4ccc5c6c(ccc(c7ccc(c2c37)C(=O)N1CCN1CCCCC1)c64)C(=O)N(CCN1CCCCC1)C5=O — logD (shake flask; aqueous buffer; pH 7): 2.1
COc1cc(N2CCN(C(=O)C3CCCN3)CC2)ccc1Nc1ncc(Cl)c(Nc2ccccc2P(C)(C)=O)n1 (stereo not drawn) — body weight (nude mice, NCI-H3122 xenograft; intraperitoneal, 10 mg/kg every other day, day 9): 26.5 g and 24.7 g and 24.5 g and 22.3 g and 25.4 g
O=C(Nc1cnccc1-c1ccc([18F])nc1)c1ccnc(NC(=O)C2CC2)c1 — SUV (FVB/NJ mouse, both sexes, liver; intravenous, 25 min, together with: tariquidar 15 mg/kg iv): 8.86
CC(C)C[C@@H]1NC(=O)[C@H](CCCCN)NC(=O)C(N)CCC=CCCCC(C(N)=O)NC(=O)[C@H](CCCCN)NC(=O)[C@H](CC(C)C)NC(=O)[C@H](CCCCN)NC(=O)C2CCCC=CCCC(NC(=O)[C@H](CCCCN)NC1=O)C(=O)N[C@@H](CCCCN)C(=O)N1CCC[C@@H]1C(=O)NCC(=O)N[C@@H](CCCCN)C(=O)N2 (stereo partly drawn) — retention time (RP-HPLC C18; hydrophobicity): 13.8 min
O=C(NS(=O)(=O)c1cccs1)c1cc2ccccc2n1Cc1ccc(Br)c2ccccc12 — C0 (Sprague-Dawley rat, male, plasma; intravenous, 2 mg/kg): 14900 ng/mL
Cc1cc(-c2ccc(C(=O)[C@@H]3CCCC[C@H]3C(=O)Nc3cnn4c3C(=O)NCC4)cc2)[nH]n1 — recovery of radioactivity per interval (human, urine; oral, 200 mg, 96-120 h; baseline: dose): 0.02%
CCCCN1C(=O)c2cccc3c(NCCN4CCOCC4)ccc(c23)C1=O — fluorescence lifetime (toluene): 7.9 ns
C[C@H](C(=O)O)c1ccc(-c2ccccc2)c(F)c1 — peak area change, RE (HPLC; sample solution; concentration not given, 12 h, room temperature, solution stability): 0.48%
O=C([O-])CN1CCN(CC(=O)[O-])CCN(CC(=O)c2ccc(-c3ccc(OCC(=O)O)cc3)cc2)CCN(CC(=O)[O-])CC1.[Eu+3] — dissociation half-life (Eu3+ luminescence decay; HCl 1 M; 1 µM, NaCl 0.15 M): 330 min
Cc1nc(N)nc2c1C(=O)N[C@@H](c1ccc(F)cc1-c1cccc(O[11CH3])n1)C2 — SUV (ex vivo biodistribution; mice, U87 subcutaneous xenograft, brain; 60 min post-injection, baseline, vehicle pre-treatment): 2.1 ± 0.2
CNc1cc(C)c(C(N)=O)cn1 — concentration at time (Han Wistar rats, male, plasma; oral, 30 mg/kg, 0.25 h): 73.3 µM
C/C(N)=N/C(=N\S(=O)(=O)c1ccc(C(F)(F)F)cc1)N1C[C@H](c2ccccc2)C(c2ccc(Cl)cc2)=N1 — Tmax (C57BL/6 mouse, kidney; intravenous, 10 mg/kg): 6 min
CC(C)(O)c1ncc([S@](N)(=O)=NC(=O)Nc2c3c(cc4c2CCC4)CCC3)s1 — subjects with TEAEs (item: musculoskeletal, connective tissue; healthy human; oral, 100 mg, 14 days, SDD formulation, once daily): 17%
CCC1CNC(CC)CN(C(C(=O)[O-])c2ccc(C(=O)[O-])cc2)C(CC)CN(CC(=O)[O-])C(CC)CN1.[Mn+2] (stereo not drawn) — Mn uptake (ICP-MS; BALB/c mice, kidney; intravenous, 0.05 mmol/kg, 5 min; baseline: injected dose): 5.16 ± 1.41%
Cc1ccc(OCC(=O)N(Cc2cccs2)c2ccn[nH]2)cc1 — remaining compound (pooled human liver microsomes; 10 µM, 10 min; baseline: time 0): 61.8%
CC[C@H](C)[C@H](NC(=O)[C@H](CCCCN)NC(=O)[C@H](CCC(=O)O)NC(=O)[C@H](CO)NC(=O)[C@H](Cc1ccccc1)NC(=O)[C@H](CC(C)C)NC(=O)[C@H](CCC(N)=O)NC(=O)[C@H](CO)NC(=O)[C@H](C)NC(=O)[C@H](CCCCN)NC(=O)[C@H](Cc1c[nH]cn1)NC(=O)[C@H](Cc1c[nH]c2ccccc12)NC(=O)[C@H](CCC(N)=O)NC(=O)[C@H](CCCCN)NC(=O)[C@H](CCCCN)NC(=O)[C@H](CC(C)C)NC(=O)CNC(=O)[C@H](C)NC(=O)[C@@H](NC(=O)[C@H](CO)NC(=O)[C@@H](N)CCSC)C(C)C)C(=O)N[C@@H](CO)C(=O)NCC(=O)N[C@@H](C)C(N)=O — ΔG of binding (circular dichroism titration; 25% DOPS/75% DOPC liposomes; 50 µM, pH 7.4, 20 °C): -6.3 kcal/mol
C=C(NC(=O)c1csc(-c2nc3c(cc2O)-c2nc(cs2)C(=O)NC(C(C)O)C(=O)NC(=C(C)OC)c2nc(cs2)C(=O)NC2c4nc(cs4)C(=O)NC(COC(=O)c4c5c6c(cccc6n4O)COC(=O)C(OC4CC(C)(O)C(N(C)C)C(C)O4)C2OC5)c2nc-3cs2)n1)C(N)=O (stereo not drawn) — Tmax (Sprague-Dawley rat, female, plasma; intravenous infusion, 6 mg/kg, multiple doses, day 7): 4.8 min
CN1CCC(OC(=O)c2ccc(Br)cc2)CC1.Cl — relative translation (Trypanosoma cruzi; reporter mRNA translation, inhibitor, item: capped polyadenylated Renilla luciferase mRNA; cell-free extract; concentration not given; baseline: control RNA): 104%
O=C(Nc1cnccc1-c1ccc([18F])cc1)c1ccnc(NC(=O)C2CC2)c1 — SUV (ex vivo gamma counting; GSK-3β transgenic mice, early-stage, bladder; intravenous, 120 min, mean, no P-gp inhibitor): 1.36
[11CH3]N1CCC(NC(=O)c2cc(-c3c(O)cc(O)cc3Oc3ccc([N+](=O)[O-])cc3)on2)CC1 — SUV (Wistar rat, female, healthy, lungs; intravenous, 18.5 MBq, 30 min): 1.2 ± 0.1
OC[C@H]1[C@@H](O)[C@H](O)[C@@H](O)CN1CCCCCOCc1ccsc1 — IC50 (GBA1 (Homo sapiens, UniProt P04062, R534H); inhibitor, 4MU-β-D-glucopyranoside; together with: 4MU-β-D-glucopyranoside): 328 µM
CCCCN1C(=O)c2cccc3c(NCCCCCN4CCOCC4)ccc(c23)C1=O — fluorescence lifetime (dioxane): 10.1 ns
C=CC(=O)N1CCCC(n2c(=O)c3ncccc3n(Cc3ccc(Oc4ccccc4)cc3)c2=O)C1 (stereo not drawn) — compound remaining (metabolic stability; male beagle dog, hepatocytes; 1 µM, 2 h): 18.8%
COc1ccc2c(c1)CCn1c[n+]3c(c1-2)-c1ccc(OC)cc1CC3 — Eosinophils (female NSG mice, blood; 6 mg/kg, day 14, 5 days per week): 7.16 ± 6.64%
CC(=O)N([O-])CCCCCNC(=O)CCC(=O)N([O-])CCCCCNC(=O)CCC(=O)N([O-])CCCCCN.[89Zr+4] — tissue uptake (gamma counting; healthy Balb/c mice, muscle; intravenous, 1 h, 89Zr-labelled complex): 0.13 ± 0.03 %ID/g
COCC1CN(C2CCN(c3cc(OC)c(Nc4ncc(Br)c(Nc5ccc6c(c5P(C)(C)=O)OCCO6)n4)cc3C)CC2)C1 — Cmax (EGFR-mutant NSCLC patients, plasma; oral, 90 mg single dose, geometric mean): 508 ng/mL

Excerpt of the above:
Cc1nc(N)nc2c1C(=O)N[C@@H](c1ccc(F)cc1-c1cccc(O[11CH3])n1)C2 — SUV (ex vivo biodistribution; mice, U87 subcutaneous xenograft, brain; 60 min post-injection, baseline, vehicle pre-treatment): 2.1 ± 0.2
Cc1ccc(OCC(=O)N(Cc2cccs2)c2ccn[nH]2)cc1 — remaining compound (pooled human liver microsomes; 10 µM, 10 min; baseline: time 0): 61.8%
COc1cc(N2CCN(C(=O)C3CCCN3)CC2)ccc1Nc1ncc(Cl)c(Nc2ccccc2P(C)(C)=O)n1 (stereo not drawn) — body weight (nude mice, NCI-H3122 xenograft; intraperitoneal, 10 mg/kg every other day, day 9): 26.5 g and 24.7 g and 24.5 g and 22.3 g and 25.4 g
COc1ccc(C(N)=O)cn1 — concentration at time (Han Wistar rats, male, plasma; oral, 30 mg/kg, 4.00 h): 3.81 µM
